Assay results collected from several papers.
Protocols differ between the studies behind these lines. ± gives the spread as reported.

With `COc1ccc(CC(O)C(=O)O)cc1O` (centres unmarked) the unbound fraction was 0.72 (ultrafiltration; rat plasma).
With `O=C(c1ccccc1)c1cc(O)c(-c2cc(Cl)cc(Cl)c2)c(O)c1` the unbound fraction was 0.0063 (equilibrium dialysis; rat plasma; 500 ng/mL, pH 7.4, 37 °C).
`COc1ccc(NC(=O)N2CCCN3CCC(c4ccc(C#Cc5ccccc5)cc4)C3C2)cc1` (centres unmarked) gave an unbound fraction of < 0.0001 (equilibrium dialysis; CD-1 mouse plasma; 2 µM).
With `Nc1ccc(-c2ccc(F)cc2)cc1NC(=O)C1CCOCC1` the unbound fraction was 0.06 (brain tissue).
`O=C(O)C(O)Cc1ccc(O)c(O)c1` (centres unmarked) has an unbound fraction of 0.98 (ultrafiltration; rat plasma).
`Brc1ccccc1-c1nnc(CSc2nnnn2-c2ccccc2)o1` gave an unbound fraction of 2.3% (equilibrium dialysis; rat brain homogenate).
`CN1C(=O)C2(Nc3ccccc3C(=O)N2Cc2ccccc2)c2cc(Br)ccc21` (centres unmarked) gave an unbound fraction of 0.019 ± 0.005 (human plasma).
The unbound fraction of `Cc1ccc(NC(=O)N2CCCN3CCC(c4ccc(C#CC5CCCC5O)cc4)C3C2)cc1` (centres unmarked) is reported as 0.0053 (equilibrium dialysis; CD-1 mouse plasma; 2 µM).
For `NC[C@@H](C(=O)Nc1ccc(-c2cn[nH]c2)cc1)c1ccccc1`, the unbound fraction was 0.097 (rabbit plasma).
With `COc1ccc(Nc2nccc(-c3c[nH]nc3-c3cccnc3)n2)cc1` the unbound fraction was 0.15 (human plasma; 10 µM).
`Nc1ccc(-c2ccncc2)cc1NC(=O)N1Cc2ccccc2C1` gave an unbound fraction of 0.23 (brain tissue).
For `CN1C(=O)[C@@H](Cc2ccc(O)c(I)c2)NC(=O)CNC(=O)[C@H](Cc2ccc3ccccc3c2)NC(=O)[C@H](CCCNC(=N)N)NC(=O)[C@H]1CCCNC(=O)c1ccc(CNC(=O)CN2CCN(CC(=O)O)CCN(CC(=O)O)CCN(CC(=O)O)CC2)cc1` [lutetium-177 labelled], the unbound fraction was 0.032 (ultrafiltration; human plasma; 15 min at room temperature).
The unbound fraction of `C=C(C)C(=O)Nc1ccc(-c2c(-c3ccc(Oc4nccc(C)n4)cc3)c3c(N)ncnc3n2C)cc1` is reported as 0.0013 (human plasma; 5 µM, 18 h).
The unbound fraction of `Cc1ccc(NC(=O)N2CCCN3CCC(c4ccc(C#Cc5cccnc5)cc4)C3C2)cc1` (centres unmarked) is reported as 0.001 (equilibrium dialysis; CD-1 mouse plasma; 2 µM).
The unbound fraction of `Nc1ccc(-c2ccc(F)cc2)cc1NC(=O)N1Cc2ccccc2C1` is reported as 0.02 (brain tissue).
The unbound fraction of `CCN(c1nc(N[C@H](CC(N)=O)C(=O)NC)nc(N2CCN(c3ccccc3C#N)CC2)n1)C1CCCCC1` is reported as 0.118 (plasma human).
`CC1=C(C=O)C(C)(C)CC=C1` has an unbound fraction of 0.08 to 0.13 (rapid equilibrium dialysis; rat plasma; 5 to 20 µM, 4 h).

For quick reference, copied from above:
With `Nc1ccc(-c2ccc(F)cc2)cc1NC(=O)C1CCOCC1` the unbound fraction was 0.06 (brain tissue).
`O=C(O)C(O)Cc1ccc(O)c(O)c1` (centres unmarked) has an unbound fraction of 0.98 (ultrafiltration; rat plasma).
